Published values of several laboratories.
Lines come from different studies, so protocols differ. Numbers after ± are the reported error.
SLCO1B3 M233I/S112A: Solute carrier organic anion transporter family member 1B3 (SLCO1B3, Homo sapiens, UniProt Q9NPD5, M233I/S112A)
UniProt Q9NPD5, sequence (whole entry, unmodified, looked up): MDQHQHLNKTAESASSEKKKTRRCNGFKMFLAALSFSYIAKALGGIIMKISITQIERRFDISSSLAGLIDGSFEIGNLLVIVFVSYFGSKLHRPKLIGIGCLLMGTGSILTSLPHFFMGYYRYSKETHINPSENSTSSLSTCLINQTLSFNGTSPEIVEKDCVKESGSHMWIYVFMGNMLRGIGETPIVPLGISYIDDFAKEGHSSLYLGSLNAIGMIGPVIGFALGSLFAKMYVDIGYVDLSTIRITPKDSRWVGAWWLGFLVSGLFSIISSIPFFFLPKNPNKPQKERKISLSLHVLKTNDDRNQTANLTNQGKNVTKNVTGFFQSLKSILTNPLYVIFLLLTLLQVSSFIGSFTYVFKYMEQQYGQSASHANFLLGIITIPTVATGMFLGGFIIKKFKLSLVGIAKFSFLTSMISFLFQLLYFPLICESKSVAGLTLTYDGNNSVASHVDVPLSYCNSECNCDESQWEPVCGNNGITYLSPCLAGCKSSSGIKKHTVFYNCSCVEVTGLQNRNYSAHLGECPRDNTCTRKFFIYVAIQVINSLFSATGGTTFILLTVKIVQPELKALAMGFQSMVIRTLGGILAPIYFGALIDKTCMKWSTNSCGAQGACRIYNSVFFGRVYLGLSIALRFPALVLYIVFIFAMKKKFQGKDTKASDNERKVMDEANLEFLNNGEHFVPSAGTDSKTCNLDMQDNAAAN
CYP2D6: Cytochrome P450 2D6 (CYP2D6, Homo sapiens, UniProt P10635)
UniProt P10635, sequence (whole entry, looked up): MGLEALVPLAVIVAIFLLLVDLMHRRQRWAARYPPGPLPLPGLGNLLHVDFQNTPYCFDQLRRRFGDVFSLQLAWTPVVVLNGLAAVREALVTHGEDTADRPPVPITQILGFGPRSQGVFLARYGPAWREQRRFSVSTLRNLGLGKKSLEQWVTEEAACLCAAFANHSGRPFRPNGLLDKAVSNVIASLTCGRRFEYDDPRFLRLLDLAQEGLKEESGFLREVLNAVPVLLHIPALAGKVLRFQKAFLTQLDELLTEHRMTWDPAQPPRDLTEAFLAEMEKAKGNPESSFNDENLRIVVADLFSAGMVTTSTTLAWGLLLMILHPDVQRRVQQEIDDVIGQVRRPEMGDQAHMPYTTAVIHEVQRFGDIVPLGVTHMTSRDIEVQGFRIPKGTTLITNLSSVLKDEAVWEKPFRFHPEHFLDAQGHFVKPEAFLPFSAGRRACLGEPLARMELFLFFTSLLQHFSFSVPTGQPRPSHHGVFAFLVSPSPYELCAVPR
SLCO1B3: Solute carrier organic anion transporter family member 1B3 (SLCO1B3, Homo sapiens, UniProt Q9NPD5)
CYP2C9: Cytochrome P450 2C9 (CYP2C9, Homo sapiens, UniProt P11712)
UniProt P11712, sequence (whole entry, looked up): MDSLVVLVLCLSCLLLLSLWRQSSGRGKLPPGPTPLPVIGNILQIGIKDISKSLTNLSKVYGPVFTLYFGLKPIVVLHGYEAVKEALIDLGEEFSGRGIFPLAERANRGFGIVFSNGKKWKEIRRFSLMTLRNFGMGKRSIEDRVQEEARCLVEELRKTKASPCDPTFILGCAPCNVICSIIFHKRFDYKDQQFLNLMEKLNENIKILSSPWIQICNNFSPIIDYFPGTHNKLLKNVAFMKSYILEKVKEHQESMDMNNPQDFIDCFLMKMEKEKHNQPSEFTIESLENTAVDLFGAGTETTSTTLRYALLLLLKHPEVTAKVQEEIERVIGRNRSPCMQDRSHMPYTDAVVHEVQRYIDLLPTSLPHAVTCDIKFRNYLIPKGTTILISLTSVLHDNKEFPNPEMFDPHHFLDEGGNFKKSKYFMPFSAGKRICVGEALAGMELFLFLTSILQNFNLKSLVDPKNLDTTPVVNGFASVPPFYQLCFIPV
NR1I2: Nuclear receptor subfamily 1 group I member 2 (NR1I2, Homo sapiens, UniProt O75469)
UniProt O75469, sequence (whole entry, looked up): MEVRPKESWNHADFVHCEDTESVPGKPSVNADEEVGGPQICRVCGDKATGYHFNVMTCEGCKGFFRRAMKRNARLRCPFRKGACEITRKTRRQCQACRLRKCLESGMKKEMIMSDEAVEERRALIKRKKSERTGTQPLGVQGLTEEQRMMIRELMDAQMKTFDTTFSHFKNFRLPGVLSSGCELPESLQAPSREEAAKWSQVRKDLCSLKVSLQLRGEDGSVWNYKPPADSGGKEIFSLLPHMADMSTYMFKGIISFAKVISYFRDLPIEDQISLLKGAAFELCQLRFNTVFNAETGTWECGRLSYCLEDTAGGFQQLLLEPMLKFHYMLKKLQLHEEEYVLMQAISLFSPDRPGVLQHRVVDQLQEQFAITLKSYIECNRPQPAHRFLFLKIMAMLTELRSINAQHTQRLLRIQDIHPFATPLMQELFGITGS
UniProt Q12809, sequence (whole entry, looked up): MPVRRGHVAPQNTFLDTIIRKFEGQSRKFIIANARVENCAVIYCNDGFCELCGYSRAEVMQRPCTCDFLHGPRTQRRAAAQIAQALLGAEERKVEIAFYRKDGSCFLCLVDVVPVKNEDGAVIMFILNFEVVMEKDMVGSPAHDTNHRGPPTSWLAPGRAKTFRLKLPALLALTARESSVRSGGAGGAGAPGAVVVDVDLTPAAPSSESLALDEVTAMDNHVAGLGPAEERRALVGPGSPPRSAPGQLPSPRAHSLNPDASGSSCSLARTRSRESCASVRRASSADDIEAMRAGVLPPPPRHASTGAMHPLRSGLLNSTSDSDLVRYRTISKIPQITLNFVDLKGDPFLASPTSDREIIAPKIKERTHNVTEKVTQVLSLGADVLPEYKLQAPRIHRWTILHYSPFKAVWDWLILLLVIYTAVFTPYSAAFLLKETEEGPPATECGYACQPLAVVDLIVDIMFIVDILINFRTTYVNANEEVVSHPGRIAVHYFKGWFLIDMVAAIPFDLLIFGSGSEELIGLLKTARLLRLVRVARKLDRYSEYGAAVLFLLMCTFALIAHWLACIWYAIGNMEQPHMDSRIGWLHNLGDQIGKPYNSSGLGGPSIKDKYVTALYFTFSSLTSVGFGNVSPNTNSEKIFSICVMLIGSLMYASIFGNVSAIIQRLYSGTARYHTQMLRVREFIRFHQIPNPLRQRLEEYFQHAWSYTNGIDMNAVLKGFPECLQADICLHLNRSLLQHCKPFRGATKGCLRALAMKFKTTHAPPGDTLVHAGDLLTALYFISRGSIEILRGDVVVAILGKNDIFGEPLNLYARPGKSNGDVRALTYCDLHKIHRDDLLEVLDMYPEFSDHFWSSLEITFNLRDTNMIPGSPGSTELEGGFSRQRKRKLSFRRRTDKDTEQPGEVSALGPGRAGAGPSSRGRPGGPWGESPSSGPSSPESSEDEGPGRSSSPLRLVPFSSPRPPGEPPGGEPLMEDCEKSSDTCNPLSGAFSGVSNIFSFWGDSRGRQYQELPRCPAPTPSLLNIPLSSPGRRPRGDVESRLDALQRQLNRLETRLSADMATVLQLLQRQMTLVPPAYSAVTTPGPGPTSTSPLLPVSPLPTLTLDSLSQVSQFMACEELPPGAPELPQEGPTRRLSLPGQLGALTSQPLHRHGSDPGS
UniProt P15538, sequence (whole entry, looked up): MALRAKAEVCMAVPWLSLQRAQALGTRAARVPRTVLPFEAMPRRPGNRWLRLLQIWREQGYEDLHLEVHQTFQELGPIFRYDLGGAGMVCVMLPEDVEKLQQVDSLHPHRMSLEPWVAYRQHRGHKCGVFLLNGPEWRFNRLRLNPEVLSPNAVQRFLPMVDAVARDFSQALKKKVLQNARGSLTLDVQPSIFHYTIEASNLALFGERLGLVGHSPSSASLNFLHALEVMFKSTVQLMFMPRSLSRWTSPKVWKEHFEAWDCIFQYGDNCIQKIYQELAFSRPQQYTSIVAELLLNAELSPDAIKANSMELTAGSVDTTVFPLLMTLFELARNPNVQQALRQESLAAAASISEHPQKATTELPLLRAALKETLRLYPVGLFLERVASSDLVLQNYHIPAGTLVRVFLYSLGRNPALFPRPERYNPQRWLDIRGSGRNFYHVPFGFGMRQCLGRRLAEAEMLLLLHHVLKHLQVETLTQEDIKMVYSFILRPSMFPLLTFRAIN
UniProt P27338, sequence (whole entry, looked up): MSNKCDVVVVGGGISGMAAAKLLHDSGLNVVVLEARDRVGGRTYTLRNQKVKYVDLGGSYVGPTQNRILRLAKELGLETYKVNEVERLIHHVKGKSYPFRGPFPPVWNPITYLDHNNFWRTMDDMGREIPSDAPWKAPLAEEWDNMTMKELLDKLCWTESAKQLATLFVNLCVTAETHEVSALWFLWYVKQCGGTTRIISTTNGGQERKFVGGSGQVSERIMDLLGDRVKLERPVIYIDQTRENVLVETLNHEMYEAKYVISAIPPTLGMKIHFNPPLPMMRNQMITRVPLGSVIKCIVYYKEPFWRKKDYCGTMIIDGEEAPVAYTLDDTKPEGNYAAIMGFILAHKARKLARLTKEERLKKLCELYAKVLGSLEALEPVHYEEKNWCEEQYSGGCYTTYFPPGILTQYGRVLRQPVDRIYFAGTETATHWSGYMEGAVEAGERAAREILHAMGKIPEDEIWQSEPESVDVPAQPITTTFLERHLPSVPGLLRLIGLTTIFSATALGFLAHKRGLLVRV
UniProt Q9NSA0, sequence (whole entry, looked up): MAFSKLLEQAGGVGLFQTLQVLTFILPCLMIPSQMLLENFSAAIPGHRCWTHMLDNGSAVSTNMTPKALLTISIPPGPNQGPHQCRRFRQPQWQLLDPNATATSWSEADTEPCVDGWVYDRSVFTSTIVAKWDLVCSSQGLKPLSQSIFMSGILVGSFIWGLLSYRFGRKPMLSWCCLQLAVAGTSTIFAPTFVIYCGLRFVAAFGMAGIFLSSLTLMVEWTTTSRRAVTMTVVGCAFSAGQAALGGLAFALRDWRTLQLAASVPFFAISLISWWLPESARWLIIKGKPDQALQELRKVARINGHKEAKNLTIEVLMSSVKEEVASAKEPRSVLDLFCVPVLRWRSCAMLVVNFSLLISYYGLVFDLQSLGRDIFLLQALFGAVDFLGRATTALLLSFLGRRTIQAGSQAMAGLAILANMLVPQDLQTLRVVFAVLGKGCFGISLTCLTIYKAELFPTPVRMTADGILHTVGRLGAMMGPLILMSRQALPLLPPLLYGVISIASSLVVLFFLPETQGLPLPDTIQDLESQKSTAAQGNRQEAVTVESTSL

CC(=O)O[C@H]1C(=O)[C@@]2(C)[C@H]([C@H](OC(=O)c3ccccc3)[C@]3(O)C[C@H](OC(=O)[C@H](O)[C@@H](NC(=O)c4ccccc4)c4ccccc4)C(C)=C1C3(C)C)[C@]1(OC(C)=O)CO[C@@H]1C[C@@H]2O
inhibition (SLCO1B3 M233I/S112A; uptake, inhibitor, radiolabelled substrate uptake; cells expressing SLCO1B3; 100 µM, 2 min, with: 1 µM [3H]estradiol glucuronide): 40 to 50%

Cc1ncc(CO)c(C(=O)O)c1O
uptake rate (SLC22A11 (Homo sapiens, UniProt Q9NSA0); substrate; HEK293 control cells; 5 min): 2.5 ± 0.1 pmol/min/mg protein

Cc1oc2ccccc2c1Cc1cc(I)c(OCC(=O)O)c(I)c1
half-maximal activation voltage (KCNH2 (Homo sapiens, UniProt Q12809); ion current, activator, whole-cell patch clamp; HEK293 expressing hERG1; 10 µM, external K+ 10 mM, 1 s depolarizations): -19.5 ± 1.5 mV

CC(C)Nc1ccnc(Nc2cccc(-c3ccncc3)c2)n1
Papp (A-B) (P-glycoprotein (human MDR1); MDR1-MDCKII; 10 µM, 1 h, pH 7.4): 75.2 ± 36.2 ×10⁻⁶ cm/s

CC[C@H]1[C@@H](O)[C@@H]2[C@H](CC[C@]3(C)[C@@H]([C@H](C)CCNC(=O)NS(=O)(=O)c4ccc(C(C)(C)C)cc4)CC[C@@H]23)[C@@]2(C)CC[C@@H](O)C[C@@H]12
AUC(0-inf) geometric mean (ABCB1 (Homo sapiens, UniProt P08183); substrate; human, plasma; dose not given, alone): 353 ng·h/mL

NCc1cc2c(cc1F)C(=O)N(C1CCC(=O)NC1=O)C2 (stereo not shown)
concentration (MAOB (Homo sapiens, UniProt P27338); substrate, LC-MS/MS; recombinant enzyme; 10 µM, 0 h, pH 7.4): 11.3 µM

CC(C)Nc1ccnc(Nc2cccc(-c3ccccn3)c2)n1
Papp (A-B) (P-glycoprotein (human MDR1); MDR1-MDCKII; 10 µM, 1 h, pH 7.4): 0.39 ± 0.222 ×10⁻⁶ cm/s

N[C@H](CNC(=O)c1cc(Br)c(-c2ccccc2Br)s1)C(=O)O
apparent permeability (P-glycoprotein (human MDR1); MDCK canine MDR1 knock-out, human MDR1 transfected; 3 µM, pH 7.4): < 10 ×10⁻⁶ cm/s

C#Cc1cccc(Nc2ncnc3cc(OCCOC)c(OCCOC)cc23)c1
inhibition (SLCO1B3 M233I/S112A; uptake, inhibitor, radiolabelled substrate uptake; cells expressing SLCO1B3; 100 µM, 2 min, with: 1 µM [3H]estradiol glucuronide): 40 to 50%

C=CC(=O)Nc1cc(Nc2nccc(-c3cn(C)c4ccccc34)n2)c(OCC(F)(F)F)nc1N(C)CCN(C)C
fraction metabolised (CYP2D6; substrate depletion, substrate; recombinant human enzymes): < 1%

C=C[C@@H]1C[C@]1(NC(=O)[C@@H]1C[C@@H]2CN1C(=O)[C@H](C(C)(C)C)NC(=O)O[C@@H]1C[C@H]1CCCCCc1nc3ccc(OC)cc3nc1O2)C(=O)NS(=O)(=O)C1CC1
Vmax (SLCO1B3; uptake, substrate; HEK293 transfected; relative activity factor scaled; relative to: mock cells): 3.08 pmol/min/mg protein

CC(C)CCCCC(=O)N[C@@H](CCN)C(=O)N[C@H](C(=O)N[C@@H](CCN)C(=O)N[C@H]1CCNC(=O)[C@H]([C@@H](C)O)NC(=O)[C@H](CCN)NC(=O)[C@H](CCN)NC(=O)[C@H](CC(C)C)NC(=O)[C@@H](Cc2ccccc2)NC(=O)[C@H](CCN)NC1=O)[C@@H](C)O
fu (plasma proteins; equilibrium dialysis; human, long-term intermittent hemodialysis, plasma; intravenous, 0.75 mg/kg, 4 h, 37 °C): 0.101

CC(C)=CCc1c(O)cc(O)c2c1O[C@H](c1ccc(O)cc1)CC2=O
inhibition (CYP2C9; 10 µM, pH 7.4): 93 ± 0.6%

CCN1CCN(c2cc(N3CCN(CC)CC3)nc(NCCNc3ccnc4cc(Cl)ccc34)n2)CC1
activation (NR1I2; reporter gene, agonist, Gal4 hybrid reporter; HEK293T transiently transfected; 20 µM, 16 h, 0.1% DMSO; relative to: vehicle): 1.55 ± 0.35 fold

c1cncc(-c2cccc(Nc3nccc(NC4CCCCC4)n3)c2)c1
efflux ratio (P-glycoprotein (human MDR1); MDR1-MDCKII; 10 µM, 1 h, pH 7.4; relative to: B-A over A-B): 1.02

C[C@]1(c2nc3c(C(N)=O)cccc3[nH]2)CCCN1
contribution to metabolism (CYP2D6; human liver microsomes; 100 µmol/L, 30 min): ~72%

[11CH3]Oc1cccc(CCc2cc(O)c(=O)[nH]n2)c1
increase in brain uptake (Abcb1a (Mus musculus, UniProt P21447); CD-1 mice, brain; concentration not given, 30 min, with: cyclosporine; relative to: without cyclosporine): no effect

CC(C)c1nc(N(C)S(C)(=O)=O)nc(-c2ccc(F)cc2)c1/C=C/[C@@H](O)C[C@@H](O)CC(=O)O
Km (SLCO1B3 (Homo sapiens, UniProt Q9NPD5, M233I); substrate, uptake; HEK293-A stably expressing SLCO1B3; 2 min): 24.6 µM

O=C(Nc1c2c(cc3c1CCC3)CCC2)NS(=O)(=O)/C=C/c1nccs1
inhibition (CYP2D6; human liver microsomes; 10 µM, pH 7.4, with: dextromethorphan): < 0%

CCc1cc(/C(C)=N/OCc2ccc(C3CCCCC3)c(C(F)(F)F)c2)ccc1CN1CC(C(=O)O)C1
CYP2C9-mediated clearance (CYP2C9; population PK; human, CYP2C9*1/*1, plasma): 2.47 L/h

O=c1[nH]c(=O)c2[nH]c(=O)[nH]c2[nH]1
log2 fold change (binding, MIDAS equilibrium dialysis LC-MS; A2AR-BRIL thermostabilized; concentration not given; relative to: no-protein control): -0.0543

COc1cccc2c(Nc3ccc4[nH]c(C(=O)N/N=C/c5ccc(SC)cc5)cc4c3)cc(C)nc12
activation (NR1I2; reporter gene, agonist, Gal4 hybrid reporter; HEK293T transiently transfected; 3 µM, 16 h, 0.1% DMSO; relative to: vehicle): 0.99 ± 0.09 fold

N[C@@H](CCCCNC(=O)CCCC[C@@H]1SC[C@@H]2NC(=O)N[C@@H]21)C(=O)O
log2 fold change (binding, MIDAS equilibrium dialysis LC-MS; A2AR-BRIL thermostabilized; concentration not given; relative to: no-protein control): -0.00388

CC[C@H](C)CCCCC(=O)N[C@@H](CCN)C(=O)N[C@H](C(=O)N[C@@H](CCN)C(=O)N[C@H]1CCNC(=O)[C@H]([C@@H](C)O)NC(=O)[C@H](CCN)NC(=O)[C@H](CCN)NC(=O)[C@H](CC(C)C)NC(=O)[C@@H](Cc2ccccc2)NC(=O)[C@H](CCN)NC1=O)[C@@H](C)O
unbound fraction (plasma proteins; equilibrium dialysis; human, long-term IHD, human plasma; intravenous, 0.75 mg/kg, 4 h, 37 °C, mean): 4.6%

CC(C)Nc1ccnc(Nc2cccc(-c3cccnc3)c2)n1
Papp (A-B) (P-glycoprotein (human MDR1); MDR1-MDCKII; 10 µM, 1 h, pH 7.4): 80.2 ± 42.1 ×10⁻⁶ cm/s

CC(C)n1c(/C=C/C(O)CC(O)CC(=O)O)c(-c2ccc(F)cc2)c2ccccc21 (stereo not shown)
Km (SLCO1B3; substrate, uptake; HEK293-A stably expressing SLCO1B3; 2 min): 3.12 ± 1.32 µM

CC(C)Nc1ccnc(Nc2ccccc2-c2ccccc2)n1
Papp (B-A) (P-glycoprotein (human MDR1); MDR1-MDCKII; 10 µM, 1 h, pH 7.4): 15 ± 5.19 ×10⁻⁶ cm/s

C[C@H]1CN(C2COC2)CCN1c1ccc(Nc2cc(-c3ccnc(N4CCn5c(cc6c5CC(C)(C)C6)C4=O)c3CO)cn(C)c2=O)nc1
remaining compound (human CYP2C8; human liver microsomes; 1 µM, 60 min, pH 7.4, with: montelukast 2 µM, NADPH; relative to: 0 min): 57 ± 6.7%

CNC(=O)c1cc(Oc2ccc(NC(=O)Nc3ccc(Cl)c(C(F)(F)F)c3)c(F)c2)ccn1
Km (SLCO1B3; substrate, uptake; HEK293-A stably expressing SLCO1B3; 2 min): 67 ± 51.5 µM

c1ccc(-c2cccc(Nc3nccc(NC4CCCCC4)n3)c2)nc1
Papp (B-A) (P-glycoprotein (human MDR1); MDR1-MDCKII; 10 µM, 1 h, pH 7.4): 18.6 ± 14.7 ×10⁻⁶ cm/s

CN(C(=O)n1cnc(-c2ccc[n+]([O-])c2)c1)C1CCCCC1
time-dependent inhibition (CYP2D6; inhibitor; pooled human liver microsomes; concentration not given, 30 min pre-incubation, without cofactor): no effect

N#C[C@H](C[C@@H]1CCCNC1=O)NC(=O)[C@H](CC1CC1)NC(=O)c1cc2cccc(Cl)c2[nH]1
intrinsic clearance (CYP2C9; NADPH metabolic stability; 2 µM, pH 7.4, 100 pmol/mL enzyme): 0.06 µL/min/pmol

C[C@]12C[C@H](O)[C@H]3[C@@H](CCC4=CC(=O)CC[C@@]43C)[C@@H]1CC[C@@H]2C(=O)CO
18-hydroxylation coupling efficiency (CYP11B1 (Homo sapiens, UniProt P15538); substrate; 100 µM, phospholipid vesicles): 22.6 ± 5.6%

COc1cccc(-c2cccc(Nc3nccc(NC(C)C)n3)c2)c1
Papp (B-A) (P-glycoprotein (human MDR1); MDR1-MDCKII; 10 µM, 1 h, pH 7.4): 0.79 ± 0.235 ×10⁻⁶ cm/s

CNC(=O)c1cc(Oc2ccc(NC(=O)Nc3ccc(Cl)c(C(F)(F)F)c3)cc2)ccn1
Vmax (SLCO1B3; uptake, substrate; HEK293-A stably expressing SLCO1B3; 2 min): 65.6 ± 24 pmol/mg protein/min

CC(C)Nc1ccnc(Nc2cccc(C(C)(C)C)c2)n1
Papp (A-B) (P-glycoprotein (human MDR1); MDR1-MDCKII; 10 µM, 1 h, pH 7.4): 1.94 ± 0.66 ×10⁻⁶ cm/s

CC[C@H]1OC(=O)[C@H](C)[C@@H](O[C@H]2C[C@@](C)(OC)[C@@H](O)[C@H](C)O2)[C@H](C)[C@@H](O[C@@H]2O[C@H](C)C[C@H](N(C)C)[C@H]2O)[C@](C)(O)C[C@@H](C)/C(=N\OCOCCOC)[C@H](C)[C@@H](O)[C@]1(C)O
mRNA level (CYP2B6; induction, measured: CYP2B6 mRNA; primary human hepatocytes; NG, 3 days, 0.1% DMSO; relative to: vehicle): < 4 fold

Repeated from above:
CCc1cc(/C(C)=N/OCc2ccc(C3CCCCC3)c(C(F)(F)F)c2)ccc1CN1CC(C(=O)O)C1
CYP2C9-mediated clearance (CYP2C9; population PK; human, CYP2C9*1/*1, plasma): 2.47 L/h

CNC(=O)c1cc(Oc2ccc(NC(=O)Nc3ccc(Cl)c(C(F)(F)F)c3)c(F)c2)ccn1
Km (SLCO1B3; substrate, uptake; HEK293-A stably expressing SLCO1B3; 2 min): 67 ± 51.5 µM

C#Cc1cccc(Nc2ncnc3cc(OCCOC)c(OCCOC)cc23)c1
inhibition (SLCO1B3 M233I/S112A; uptake, inhibitor, radiolabelled substrate uptake; cells expressing SLCO1B3; 100 µM, 2 min, with: 1 µM [3H]estradiol glucuronide): 40 to 50%
